Measured values from different studies.
Each numbered part is a random draw from the data of one study; scales do not carry over between parts. Changes are numbered by the printed parent chain.

Sample 1 — target: CCNB3, cyclin fold, Cln2 fusion (human); technique: yeast growth competition, sequencing; matrix: yeast; notes: strong parent motif; relative to: not given; direction: higher = stronger binding
Parent: BRCA2 docking peptide (human); PSIKRNLLNEFDR
Under “normalised enrichment score”, `L8R` is recorded as -0.486.
Under “normalised enrichment score”, `K4Y` is recorded as 0.355.
`L8K` — result for “normalised enrichment score”: 0.682.
For `I3E`, “normalised enrichment score” read 0.166.
`K4I`: “normalised enrichment score” 0.419.
For `E10H`, “normalised enrichment score” read 0.23.
`L7I` — result for “normalised enrichment score”: 1.07.
Under “normalised enrichment score”, `E10K` is recorded as -0.284.
`L7E`: “normalised enrichment score” 0.293.
`R13I`: “normalised enrichment score” 1.27.
For `E10P`, “normalised enrichment score” read 0.186.
`F11Y` — result for “normalised enrichment score”: 0.609.
Under “normalised enrichment score”, `D12C` is recorded as 0.798.
`I3F` — result for “normalised enrichment score”: 0.301.
For `I3H`, “normalised enrichment score” read 0.348.
For `R13E`, “normalised enrichment score” read 0.8.
`S2I` — result for “normalised enrichment score”: 1.44.
`S2C` — result for “normalised enrichment score”: 0.952.
`R13L`: “normalised enrichment score” 0.542.
Under “normalised enrichment score”, `K4R` is recorded as 1.97.
Under “normalised enrichment score”, `I3G` is recorded as 0.581.
For `L7Y`, “normalised enrichment score” read 0.0244.
Under “normalised enrichment score”, `D12T` is recorded as 0.528.
For `N9T`, “normalised enrichment score” read 1.21.
For `P1Q`, “normalised enrichment score” read 1.36.

Sample 2 — technique: RNA Bind-n-Seq; form: RNA; matrix: in vitro; tested at: 1 µM; notes: whole 134-nt RNA, ends assumed; with: 150 mM KCl; relative to: input library; direction: higher = stronger binding
Target: Ras GTPase-activating protein-binding protein 1, C-terminal RGG region (G3BP1, Homo sapiens, UniProt Q13283)
Sequence of UniProt Q13283 (whole entry, looked up): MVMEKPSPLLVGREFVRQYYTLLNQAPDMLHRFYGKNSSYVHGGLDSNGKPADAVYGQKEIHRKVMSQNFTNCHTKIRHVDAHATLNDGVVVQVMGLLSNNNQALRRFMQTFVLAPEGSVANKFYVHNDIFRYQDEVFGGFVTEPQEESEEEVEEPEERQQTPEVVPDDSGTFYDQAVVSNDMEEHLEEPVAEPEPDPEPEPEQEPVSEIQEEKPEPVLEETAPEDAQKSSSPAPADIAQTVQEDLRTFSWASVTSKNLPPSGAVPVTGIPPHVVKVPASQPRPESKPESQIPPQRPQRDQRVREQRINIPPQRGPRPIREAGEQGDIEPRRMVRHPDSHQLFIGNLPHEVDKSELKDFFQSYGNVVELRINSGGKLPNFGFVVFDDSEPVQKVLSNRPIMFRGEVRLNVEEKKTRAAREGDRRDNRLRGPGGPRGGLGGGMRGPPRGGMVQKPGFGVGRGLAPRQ
All sequences stand within: GGGAGUUCUACAGUCCGACGAUC … UGGAAUUCUCGGGUGUCAAGG
The log2 enrichment of `CUGUGCUACACAUCGUAUGUACCGAAUCGGGGCCCCCCCGGGCCCCCCCGGCCCCCCCGGGAAAGUAUUAUGUUACGCCGUUCGGAUCUG` is reported as -1.74.
For `ACCAUGCAGGUGGGCAUCUUUGGGAAGUGGGGCAAGGGGGGGAUACGGAGGGGGGUAACACUUUGGGAACAGGUGGUCCCAGGUCGUUUC`, the log2 enrichment was 2.14.
`CAAGUCCUGUGCUACACAUCGUAUGUACCGAAUCGGGGAGGGGUUUGGGGAGGGGAAAGUAUUAUGUUACGCCGUUCGGAUCUGCACUUC` has a log2 enrichment of 3.49.
The log2 enrichment of `UCAAGUCCUGUGCUACACAUCGUAUGUACCGAAUCGGGGAAGGGGAAGGAAGGGAAAGUAUUAUGUUACGCCGUUCGGAUCUGCACUUCC` is reported as -0.529.
`AAGUCCUGUGCUACACAUCGUAUGUACCGAAUCGGGUUUUUUUGGGUUUGGGAGGGAAAGUAUUAUGUUACGCCGUUCGGAUCUGCACUU` has a log2 enrichment of 0.649.
For `CAAGUCCUGUGCUACACAUCGUAUGUACCGAAUCGGGUUUGGGGUUUGGUUUGGGAAAGUAUUAUGUUACGCCGUUCGGAUCUGCACUUC`, the log2 enrichment was -0.843.
`UAAUUUUAGAGGAGGAUCUGAUGGAUAUGGCAGUGGACGUGGAUUUGGGGAUGGCUAUAAUGGGUAUGGAGGAGGACCUGGAGGUGGCAA` gave a log2 enrichment of -0.848.
For `UGUGCUACACAUCGUAUGUACCGAAUCGGGGUUUUUUUGGGUUUUUUUGGGGUUUUUUUGGGGAAAGUAUUAUGUUACGCCGUUCGGAUC`, the log2 enrichment was -0.712.
`AAGUCCUGUGCUACACAUCGUAUGUACCGAAUCGGGGAGGGGUGGGGAAAAAGGGGAAAGUAUUAUGUUACGCCGUUCGGAUCUGCACUU` has a log2 enrichment of 1.71.

Sample 3 — technique: DHFR PCA, deep sequencing; matrix: yeast; with: (+)-ABA 4.8 µM; relative to: wild-type fitted maximum; direction: higher = stronger binding
Target: ABI1, truncated, D143A, DHFR fusion (Arabidopsis thaliana)
Notes: methotrexate growth selection, single substitutions
Parent: PYL1, truncated, DHFR fusion (Arabidopsis thaliana); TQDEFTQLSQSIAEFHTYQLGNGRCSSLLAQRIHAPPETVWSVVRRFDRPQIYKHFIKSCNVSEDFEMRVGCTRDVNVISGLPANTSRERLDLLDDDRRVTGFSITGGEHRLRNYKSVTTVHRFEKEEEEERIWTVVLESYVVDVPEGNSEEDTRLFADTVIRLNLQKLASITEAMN; partner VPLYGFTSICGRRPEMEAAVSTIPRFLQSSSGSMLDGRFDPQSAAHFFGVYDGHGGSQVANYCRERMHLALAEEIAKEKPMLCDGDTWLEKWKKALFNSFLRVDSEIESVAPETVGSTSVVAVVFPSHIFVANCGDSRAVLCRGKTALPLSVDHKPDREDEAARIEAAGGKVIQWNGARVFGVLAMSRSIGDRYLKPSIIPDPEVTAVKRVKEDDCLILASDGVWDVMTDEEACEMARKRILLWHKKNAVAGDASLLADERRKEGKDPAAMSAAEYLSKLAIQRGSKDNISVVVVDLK
For `F47P`, “relative binding score” read -16.2%.
`S11Q` — result for “relative binding score”: 84.1%.
`N114Y` — result for “relative binding score”: 10.9%.
`P36T` — result for “relative binding score”: 66%.
`T39A`: “relative binding score” 66.1%.
`T119F`: “relative binding score” -7.48%.
`H122P` — result for “relative binding score”: 3.51%.
`V76M` — result for “relative binding score”: 17.2%.
For `A170Y`, “relative binding score” read -7.61%.
Under “relative binding score”, `Y115Q` is recorded as -7.28%.
`V142G`: “relative binding score” 15.4%.
For `R49I`, “relative binding score” read 24.2%.
`Q7I` — result for “relative binding score”: 64.6%.
`D96W`: “relative binding score” -7.96%.
For `V44L`, “relative binding score” read 58.8%.
`R113C`: “relative binding score” 56.1%.
Under “relative binding score”, `V76P` is recorded as -0.692%.
Under “relative binding score”, `E130I` is recorded as 66.5%.
For `P83G`, “relative binding score” read 33.9%.

Single results of other studies
`PhoQ, residues 284 288 289 292 302 303 ALSMDL` gave a fold induction of 5.19 (PhoP, residues 12 14 15 18 19 VQGLL (Escherichia coli, UniProt P23836); Sort-seq, measured: YFP reporter; E. coli; PhoQ-PhoP variant library, with: 10 µM Mg2+; relative to: high Mg2+ state, higher = stronger signaling).

Some of these lines once more (sample 1):
`S2I` — result for “normalised enrichment score”: 1.44.
`S2C` — result for “normalised enrichment score”: 0.952.
`R13L`: “normalised enrichment score” 0.542.
Under “normalised enrichment score”, `K4R` is recorded as 1.97.
